Published values collected from several papers.
Numbered parts are unrelated; each lists some results of a single study.

Study 1 — technique: RNAcompete; molecule type: RNA; sample: in vitro; tested at: 20 nM; notes: 7-mer, probes averaged, single round; relative to: mean of 7-mers; reading: higher = stronger binding
Target: PABPC1L2, full length, GST fusion (mouse, UniProt A0ABA7IW68)
Target sequence (chain): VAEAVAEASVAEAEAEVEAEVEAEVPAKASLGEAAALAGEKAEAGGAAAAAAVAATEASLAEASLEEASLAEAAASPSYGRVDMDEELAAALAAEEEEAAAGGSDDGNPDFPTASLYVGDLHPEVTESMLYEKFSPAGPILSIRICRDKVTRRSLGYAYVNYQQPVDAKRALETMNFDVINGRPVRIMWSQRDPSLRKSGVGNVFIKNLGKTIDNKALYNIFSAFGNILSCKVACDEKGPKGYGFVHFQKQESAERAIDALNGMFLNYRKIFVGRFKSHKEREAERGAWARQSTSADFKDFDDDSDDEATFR
Sequence | 7-mer Z-score
UGGAGUC | -0.186
UACACGC | -0.264
GAUUACC | -0.271
UGGUCGG | -0.155
UGCAUGC | -0.253
GGCGGUC | 0.24
GGGCAUU | 0.338
AGCCCUA | -0.171
GACAGCG | -0.0826
UCAUUCG | -0.313
CGUGCCU | -0.164
GGUUUAA | -0.204
GGAGGCA | 0.341
GCUAAGA | -0.122
CUUGAGA | -0.108
GUUGUAG | -0.338
AAGAGAG | 0.488
UAAUUCG | -0.193
UCCGCUG | -0.373
UCACCAC | -0.146
CCCCAAU | -0.353
AAAAAAU | 22.1
GCGAUCA | -0.0989
GAUGGUU | -0.213
GCGUAUU | -0.139

Study 2 — technique: protein binding microarray; molecule type: double-stranded DNA, one strand shown; sample: in vitro; tested at: not given; relative to: not given; reading: higher = stronger binding
Target: Histone acetyltransferase KAT6A, winged helix 1, GST fusion (KAT6A, Homo sapiens, UniProt Q92794, residues 1-85)
Notes: 8-mer, flanks averaged, mean of 2 arrays, mostly near background
Target sequence (chain): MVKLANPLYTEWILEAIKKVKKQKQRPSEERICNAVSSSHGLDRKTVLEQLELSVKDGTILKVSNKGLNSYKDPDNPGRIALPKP
Sequence | E-score
TCGCTGAA | 0.00247
AACCACTG | -0.122
CCAGTTTA | -0.172
CAAGAATG | -0.24
CAGACACG | 0.142
GAAATCTC | -0.0704
GCCCCAGC | 0.0443
CATGCGCC | 0.358
TATCTGGA | -0.255
CAATATGC | 0.000855
CTAGTGCA | 0.0366
CTTTCAAA | -0.102
ATACTGCA | -0.0736
AATAATTA | -0.0549
GGTGCGGA | 0.0183
AGATACCA | -0.0818
ACCCTGCT | -0.134
CGGCGGTA | 0.463
ATTTTGAG | -0.159
CTCGAGCA | -0.261
GAATCTGC | -0.0912
CTCTCACC | -0.0903
CGGTTCCC | 0.179
CCTGACCG | 0.144
GATCATCC | -0.0481

Study 3 — technique: RNA Bind-n-Seq; molecule type: RNA; sample: in vitro; tested at: 365 nM; relative to: no-protein control; reading: higher = stronger binding
Target: RNA binding protein fox-1 homolog 2, RRM domain, GST-SBP tag (RBFOX2, Homo sapiens, UniProt O43251-10, residues 100-194)
Notes: natural RNA segment, single round, ends assumed
All sequences stand within: GGGAGUUCUACAGUCCGACGAUC … UGGAAUUCUCGGGUGCCAA
Sequence | RBNS enrichment (R)
GAACUGGACGUCACCAAACAAGGUUGCAUUUUACUUUUGCAUCCAGUUUUUAUAGUUUUCCACAACCAAGCCACCCUUCACAGAUAAAAUAUGAUGCUGGCAUGGCAAUC | 0.551
CACCCUGACUAUGGGACGGAAAUCAGUGCUGCAUCUUCAUGGGCUGCUCUGCUCGGAGAUGGGGCCCGAGGGGCCCGUUUUGUUCAGAAAUAUAUUUUAAAUGUUUAGUA | 0.393
UGGGAUUUACAUGCAGAACAAAAGAUACUGUCAAAGGCUGUGGGGUUGCAGCUCAAAUAUUUAAGUAGCAGGAAGAAUACACAUACUAAAGGUUUUCCACUAAUGGACCA | 0.639
GGGCUCCUCCAGGCCAGGGCCCUACACAAGAACUGUCCCCCAGCUCUGCUAUCCCCAUGGCCAUGAAGGCUCCCUACCCCCAGAUGCCCACUCUCUCCACCUUUAUUUGC | 0.645
UUCUCACCAAACUUCAUGUAUAAAUAAAAUACAUAUUUUUAAAACAAACCAAUAAAUGGCUUACAUGCCUGGUCUAGGCUCUGUCCUUGUGCUGAGAUUUGACAAGAGUG | 0.481
CCUACUGCAUUCGUCAGCACCUGGAAACACCUGCCUUCUAAUGUAGAGCAUCCUAAAGAAAGCACGCAUGAGGUCAUUCUGAUGCACGGCGAGAUGAGAUGUCAUUUCUG | 12.9
ACCACAGCAACCUACUGUAUAUUUUCUCCCUGAAAUCCUGCCCUCUGUCUUUGCACUUAGCUGUUCAAGUAUUGCCUUGGAUUUACAAAAUACAAGGGAUGGGGAAAUCU | 0.531
ACUUUAAAUGUAUCAUGUGAGCAUAAGAGUCUGGAUUAUCUAACAUUGUUAGCCCUGUGUAUGUACAGUCCAGAACUUCACUUUUUUUAGAAAAUUUUUUUGUUUGUUUA | 1.56

Study 4 — technique: RNA Bind-n-Seq; molecule type: RNA; sample: in vitro; tested at: not given; notes: RNA with constant flanks, ends assumed; relative to: input RNA pool; reading: higher = stronger binding
Target: RING finger protein unkempt homolog, zinc fingers 1-6, GST-SBP tag (UNK, Homo sapiens, UniProt Q9C0B0, residues 30-357)
Chain of UniProt Q9C0B0 (30-357, looked up): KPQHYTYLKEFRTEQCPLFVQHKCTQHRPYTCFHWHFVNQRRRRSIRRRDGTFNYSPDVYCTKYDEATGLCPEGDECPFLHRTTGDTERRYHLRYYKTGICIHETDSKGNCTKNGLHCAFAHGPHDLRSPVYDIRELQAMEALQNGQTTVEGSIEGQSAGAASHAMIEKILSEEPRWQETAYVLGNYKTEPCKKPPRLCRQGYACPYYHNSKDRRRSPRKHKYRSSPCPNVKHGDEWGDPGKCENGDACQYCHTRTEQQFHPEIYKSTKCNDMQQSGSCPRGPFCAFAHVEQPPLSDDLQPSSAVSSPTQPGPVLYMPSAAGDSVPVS
All sequences stand within: GGGAGUUCUACAGUCCGACGAUC … CAACAGAGGAUUGAGCAUCA
Sequence | bound/input enrichment
AAGGUAAGACUUAUUUGUAGUAGAUAAAUAGCCACCAUGGAGACCAAGGACCACAAGAAACACCGGAAGAAGCACAGUGGGCCUAAAGCUGAGAAGAAAAAGAAACGGCACCUGCAAGAC | 0.247 ratio
UCUGCUUGUUCCGGCCACUGCUUGUGUGAGCUUUAUUUUGUGUGUGUGUAUGUGCCUUGGAACCGAAAACACCCCUUUGCAUUCAAUUUCUCUCAUCCCUAAAAGCUUUUAAAGACAUGC | 0.267 ratio
UACCUCUUACAAAAAAAAGAAAAAAAAAGAAAAAGUUCAUUUCUUCAUUCUGUUUGUAUCCCGCGAAGCUGAAUGUCAGAAGCCCCUCUGUCCACACACAAAGUCUGCAUGUAUUGGUCG | 0.727 ratio
GAACAUGUUGACAAACUGAAAAUCCCUCCUGAAGAAAUGAAACAAAUGGAACAAAAGUUGAUCCGAGACUUCCAAGAAUAUGUAGAGCCAGGAGAAGACUUCCCGGCUUCUCCCCAGAGA | 0.608 ratio
UGCUCGUUUGCUUCUUCCAUCCUUUCUUCUGAGGGAGGGGUCCUGUUGUAGUGUGAAUUCUACCGUCUCGCUUGUCCUUGAAUUUAUGGAAACCCUUCAUUUCAGCUUCUCUAGUGUUGG | 0.257 ratio
CAGAGGAACCAAUGGGCAUUGGUGGCUCCUGUACCACAUUCCUUUUAUUCAUUUGAACUAACCGUGGUUCAGAAUUAUCUUUACGCUGUCAACAGUAAGCGCAUGCUCUGCUAUGAUCCU | 0.164 ratio
CUCAAAAGGAAGUAAGGAUUUUACAAGACAGAUUAAAAAAAAAUUGUUUUGUCCAAAAUACCGUUGUUGUUGAUUUUUUUUUAAGUUUUCUAAGCAAUAUUUUUCAAGCCAGAAGUCCUC | 0.46 ratio
CUCACACCGUGUGUGGUCCAGGCUGUACCUUCAGAUCUUUAUGUGGUUCCAAAAUGUCCUCCGCUGCCCUGUGGCCUGAAGGAAUCCAGAGCCAGGGAGCAAUAUGCUGAUAGCAGGGUG | 0.144 ratio

Study 5 — technique: universal PBM; molecule type: double-stranded DNA, one strand shown; sample: in vitro; tested at: not given; reading: higher = stronger binding
Target: Sal-like protein 4, full length isoform B (SALL4, Homo sapiens, UniProt Q9UJQ4-2, residues 1-616)
Notes: 8-mer, flanks averaged, mean of replicates
Target sequence (chain): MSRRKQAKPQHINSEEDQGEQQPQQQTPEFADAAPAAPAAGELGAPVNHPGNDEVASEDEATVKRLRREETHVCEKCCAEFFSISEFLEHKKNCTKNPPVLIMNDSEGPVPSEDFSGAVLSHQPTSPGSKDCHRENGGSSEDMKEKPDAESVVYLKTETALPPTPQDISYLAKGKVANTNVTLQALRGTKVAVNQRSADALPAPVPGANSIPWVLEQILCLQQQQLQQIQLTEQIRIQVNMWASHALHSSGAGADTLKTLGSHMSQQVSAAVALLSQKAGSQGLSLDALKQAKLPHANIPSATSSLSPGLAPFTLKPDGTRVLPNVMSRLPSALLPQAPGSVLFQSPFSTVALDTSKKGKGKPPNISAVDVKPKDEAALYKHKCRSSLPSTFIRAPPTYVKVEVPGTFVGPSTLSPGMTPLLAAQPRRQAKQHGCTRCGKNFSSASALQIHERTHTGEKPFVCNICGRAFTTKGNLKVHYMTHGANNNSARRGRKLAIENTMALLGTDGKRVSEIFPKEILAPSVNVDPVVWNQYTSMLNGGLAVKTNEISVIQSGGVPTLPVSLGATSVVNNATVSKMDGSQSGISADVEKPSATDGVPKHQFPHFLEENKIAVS
Sequence | E-score
CTGCGCCA | -0.224
AGATCTTA | 0.121
CCGCGATC | -0.265
AAGGCAGA | 0.014
ACAGGCTC | -0.198
ACTACTGG | -0.153
AGCGGCAA | -0.184
CGTGAAAG | 0.126
ACCTTGAA | 0.0573
AGGAAACT | -0.0366
CTAGCTTA | 0.106
ACCATCGG | -0.223
ATGCGCAG | -0.115
AGCTGGCC | -0.161
GTCCTAAC | 0.0632
AACGCTCC | -0.0701
CGCTTGCA | -0.0396
CCGACGGA | -0.207
